Results of several laboratories.
Every numbered part comes from another study and shows a few of its results, in no order.
UniProt O14733, sequence (whole entry, looked up): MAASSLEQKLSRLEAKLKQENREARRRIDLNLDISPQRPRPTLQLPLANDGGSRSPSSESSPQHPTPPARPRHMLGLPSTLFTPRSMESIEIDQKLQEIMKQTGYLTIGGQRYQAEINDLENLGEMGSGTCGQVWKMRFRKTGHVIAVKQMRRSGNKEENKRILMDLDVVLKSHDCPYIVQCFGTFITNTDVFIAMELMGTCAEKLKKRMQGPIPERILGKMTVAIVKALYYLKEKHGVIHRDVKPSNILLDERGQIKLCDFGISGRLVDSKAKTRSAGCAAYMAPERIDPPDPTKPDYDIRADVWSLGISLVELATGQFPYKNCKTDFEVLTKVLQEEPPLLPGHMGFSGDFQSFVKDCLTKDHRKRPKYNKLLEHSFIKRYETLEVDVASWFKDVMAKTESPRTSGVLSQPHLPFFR
UniProt P36507, sequence (whole entry, looked up): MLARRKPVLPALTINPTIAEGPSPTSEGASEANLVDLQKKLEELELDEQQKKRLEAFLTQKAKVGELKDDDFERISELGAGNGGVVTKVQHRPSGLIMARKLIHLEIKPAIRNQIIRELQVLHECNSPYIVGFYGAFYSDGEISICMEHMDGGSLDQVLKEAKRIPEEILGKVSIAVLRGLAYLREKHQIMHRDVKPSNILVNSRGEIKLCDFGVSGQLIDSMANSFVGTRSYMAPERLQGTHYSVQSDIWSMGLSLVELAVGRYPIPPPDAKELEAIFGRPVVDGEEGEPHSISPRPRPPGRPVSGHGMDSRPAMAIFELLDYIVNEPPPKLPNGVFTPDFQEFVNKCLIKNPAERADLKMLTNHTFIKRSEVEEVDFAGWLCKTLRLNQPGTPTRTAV
UniProt O60285, sequence (whole entry, looked up): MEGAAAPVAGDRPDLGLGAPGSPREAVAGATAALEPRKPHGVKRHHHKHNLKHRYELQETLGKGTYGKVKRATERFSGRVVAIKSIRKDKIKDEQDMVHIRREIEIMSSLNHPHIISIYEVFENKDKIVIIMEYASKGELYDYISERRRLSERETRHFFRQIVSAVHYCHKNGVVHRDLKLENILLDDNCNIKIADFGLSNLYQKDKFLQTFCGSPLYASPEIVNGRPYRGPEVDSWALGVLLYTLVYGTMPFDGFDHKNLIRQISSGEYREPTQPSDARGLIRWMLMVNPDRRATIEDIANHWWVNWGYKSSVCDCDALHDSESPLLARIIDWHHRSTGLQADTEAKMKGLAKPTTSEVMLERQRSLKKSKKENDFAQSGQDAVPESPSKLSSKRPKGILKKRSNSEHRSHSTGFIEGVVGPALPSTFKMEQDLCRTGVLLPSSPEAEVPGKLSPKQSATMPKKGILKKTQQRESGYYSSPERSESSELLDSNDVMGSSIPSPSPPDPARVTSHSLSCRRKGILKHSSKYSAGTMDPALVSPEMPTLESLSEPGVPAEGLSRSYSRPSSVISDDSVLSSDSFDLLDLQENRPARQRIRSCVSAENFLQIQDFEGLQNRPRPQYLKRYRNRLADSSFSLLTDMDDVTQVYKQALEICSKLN
UniProt Q8IYT8, sequence (whole entry, looked up): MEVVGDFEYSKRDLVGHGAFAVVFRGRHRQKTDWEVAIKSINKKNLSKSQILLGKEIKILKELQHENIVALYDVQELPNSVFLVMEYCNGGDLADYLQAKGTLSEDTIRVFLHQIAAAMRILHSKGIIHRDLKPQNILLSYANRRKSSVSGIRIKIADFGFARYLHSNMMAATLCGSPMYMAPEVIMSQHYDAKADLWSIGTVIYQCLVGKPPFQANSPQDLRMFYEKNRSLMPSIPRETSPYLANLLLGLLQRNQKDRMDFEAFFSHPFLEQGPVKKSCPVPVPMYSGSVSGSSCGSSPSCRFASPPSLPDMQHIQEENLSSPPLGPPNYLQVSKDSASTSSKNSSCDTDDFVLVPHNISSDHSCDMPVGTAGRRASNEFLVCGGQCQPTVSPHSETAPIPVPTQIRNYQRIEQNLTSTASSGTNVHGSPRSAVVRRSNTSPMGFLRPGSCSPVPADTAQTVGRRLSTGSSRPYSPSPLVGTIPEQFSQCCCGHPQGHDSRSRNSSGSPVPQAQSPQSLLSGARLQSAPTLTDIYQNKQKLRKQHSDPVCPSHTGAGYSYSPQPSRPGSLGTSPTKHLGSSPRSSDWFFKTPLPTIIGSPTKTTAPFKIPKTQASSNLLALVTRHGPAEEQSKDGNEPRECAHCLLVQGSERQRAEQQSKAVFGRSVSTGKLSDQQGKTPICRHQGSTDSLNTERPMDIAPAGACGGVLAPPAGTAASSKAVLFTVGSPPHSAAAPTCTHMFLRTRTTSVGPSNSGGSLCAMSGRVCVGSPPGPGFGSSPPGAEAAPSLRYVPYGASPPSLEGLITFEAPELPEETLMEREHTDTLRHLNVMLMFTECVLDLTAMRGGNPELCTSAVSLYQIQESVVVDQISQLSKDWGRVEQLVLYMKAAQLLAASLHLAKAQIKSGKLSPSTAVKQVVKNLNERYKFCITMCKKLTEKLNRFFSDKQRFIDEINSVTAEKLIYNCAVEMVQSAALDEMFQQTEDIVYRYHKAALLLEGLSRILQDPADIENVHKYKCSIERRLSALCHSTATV
UniProt O94921, sequence (whole entry, looked up): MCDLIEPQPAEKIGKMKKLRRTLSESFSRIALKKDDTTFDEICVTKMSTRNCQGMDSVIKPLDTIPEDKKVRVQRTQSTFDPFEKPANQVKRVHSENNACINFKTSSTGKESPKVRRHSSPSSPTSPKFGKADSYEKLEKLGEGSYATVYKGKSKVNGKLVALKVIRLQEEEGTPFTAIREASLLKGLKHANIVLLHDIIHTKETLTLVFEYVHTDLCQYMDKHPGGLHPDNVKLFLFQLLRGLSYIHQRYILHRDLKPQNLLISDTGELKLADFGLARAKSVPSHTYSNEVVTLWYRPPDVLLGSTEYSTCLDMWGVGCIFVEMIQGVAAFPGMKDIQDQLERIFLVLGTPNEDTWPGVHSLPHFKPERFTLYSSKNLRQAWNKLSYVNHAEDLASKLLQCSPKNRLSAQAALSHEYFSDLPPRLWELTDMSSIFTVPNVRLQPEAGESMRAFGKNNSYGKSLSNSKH
UniProt P30530, sequence (whole entry, looked up): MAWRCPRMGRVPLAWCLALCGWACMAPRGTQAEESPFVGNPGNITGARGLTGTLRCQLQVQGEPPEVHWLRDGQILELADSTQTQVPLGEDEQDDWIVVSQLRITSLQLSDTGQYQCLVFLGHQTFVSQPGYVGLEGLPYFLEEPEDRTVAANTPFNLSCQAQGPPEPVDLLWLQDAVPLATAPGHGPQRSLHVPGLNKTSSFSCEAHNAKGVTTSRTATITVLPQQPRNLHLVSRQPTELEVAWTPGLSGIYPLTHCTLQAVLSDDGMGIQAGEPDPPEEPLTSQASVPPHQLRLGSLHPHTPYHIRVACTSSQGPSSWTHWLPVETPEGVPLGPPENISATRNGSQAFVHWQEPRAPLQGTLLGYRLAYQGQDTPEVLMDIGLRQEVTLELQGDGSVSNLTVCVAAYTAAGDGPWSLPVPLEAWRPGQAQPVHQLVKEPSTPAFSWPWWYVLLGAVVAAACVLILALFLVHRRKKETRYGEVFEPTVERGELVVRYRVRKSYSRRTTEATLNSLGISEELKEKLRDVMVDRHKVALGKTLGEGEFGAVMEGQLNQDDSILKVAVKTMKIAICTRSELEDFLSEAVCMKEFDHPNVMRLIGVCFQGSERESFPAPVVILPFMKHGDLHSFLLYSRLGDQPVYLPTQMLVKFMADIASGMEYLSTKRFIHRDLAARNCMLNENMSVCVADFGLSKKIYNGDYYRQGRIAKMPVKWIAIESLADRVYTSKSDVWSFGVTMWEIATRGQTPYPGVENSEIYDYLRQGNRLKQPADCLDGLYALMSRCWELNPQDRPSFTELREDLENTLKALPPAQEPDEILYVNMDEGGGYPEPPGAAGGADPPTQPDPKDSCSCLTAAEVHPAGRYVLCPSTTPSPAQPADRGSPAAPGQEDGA
UniProt Q8TD08, sequence (whole entry, looked up): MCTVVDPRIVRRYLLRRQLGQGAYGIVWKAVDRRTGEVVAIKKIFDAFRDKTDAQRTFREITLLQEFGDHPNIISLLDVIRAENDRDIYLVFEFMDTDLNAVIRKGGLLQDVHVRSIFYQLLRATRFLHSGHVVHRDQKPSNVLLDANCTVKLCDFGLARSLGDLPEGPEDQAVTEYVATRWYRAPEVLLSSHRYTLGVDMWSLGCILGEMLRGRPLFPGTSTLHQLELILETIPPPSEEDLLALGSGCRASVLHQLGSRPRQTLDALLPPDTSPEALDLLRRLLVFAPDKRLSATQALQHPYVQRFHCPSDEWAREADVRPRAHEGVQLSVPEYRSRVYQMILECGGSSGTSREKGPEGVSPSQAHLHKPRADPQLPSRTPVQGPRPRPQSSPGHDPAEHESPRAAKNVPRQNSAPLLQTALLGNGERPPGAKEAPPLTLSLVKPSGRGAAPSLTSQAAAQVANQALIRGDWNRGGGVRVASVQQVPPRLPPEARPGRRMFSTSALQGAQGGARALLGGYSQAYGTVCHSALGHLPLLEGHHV

Sample 1
Host: mouse
Matrix: microsomes or S9
Tested at: 2 µM
Time: 0.5 h
SMILES	remaining compound [%]
Cc1nn(-c2cccc(Cl)c2)c(Cl)c1CN1CCn2c(n[nH]c2=O)C1	77.8
CC1(COc2ccccc2)CC(n2ccnc2)C(c2ccc(-c3ccccc3)cc2)=NO1 (centres unmarked)	2.58
CC(C)(C)OC(=O)N1CCN(Cc2nc(-c3ccco3)n[nH]2)CC1	25.8
CC(C)CC(=O)NCC12CCCC=C1N(C)C(=O)CC2 (centres unmarked)	34
Cc1nc(-c2ccc(F)cc2)cc2c1sc1ccccc12	0.811
Cc1ccc(S(=O)(=O)NC(=NCc2ccccc2)c2ccc(F)cc2)cc1	1.65
Cc1nc2nc(N3C(=O)CCC3=O)nn2c(C)c1Cl	61.6
COc1ccc(C2C(C(=O)N3CCN(c4ccccc4)CC3)CCC(=O)N2c2ccc3c(c2)OCO3)cc1 (centres unmarked)	12.8
CC1Cc2cc(-c3ccc(C#N)c(O)n3)ccc2O1 (centres unmarked)	22
Cc1cc(C)c(-c2csc(Nc3ncnc4[nH]ncc34)n2)cc1C	5.64
Cc1c(C)n(-c2nccs2)c2ncnc(NCc3cccnc3)c12	3.13
O=C(c1scc2c1OCCO2)N1CCCCCC1	17.9
CN(c1ccccc1)c1ncnc2c([C@H]3O[C@@H](COCc4ccccc4)[C@H](OCc4ccccc4)[C@@H]3OCc3ccccc3)cnn12	0.438

Sample 2
Target: G protein-coupled receptor kinase 6 (GRK6, Homo sapiens, UniProt P43250)
UniProt P43250, sequence (whole entry, looked up): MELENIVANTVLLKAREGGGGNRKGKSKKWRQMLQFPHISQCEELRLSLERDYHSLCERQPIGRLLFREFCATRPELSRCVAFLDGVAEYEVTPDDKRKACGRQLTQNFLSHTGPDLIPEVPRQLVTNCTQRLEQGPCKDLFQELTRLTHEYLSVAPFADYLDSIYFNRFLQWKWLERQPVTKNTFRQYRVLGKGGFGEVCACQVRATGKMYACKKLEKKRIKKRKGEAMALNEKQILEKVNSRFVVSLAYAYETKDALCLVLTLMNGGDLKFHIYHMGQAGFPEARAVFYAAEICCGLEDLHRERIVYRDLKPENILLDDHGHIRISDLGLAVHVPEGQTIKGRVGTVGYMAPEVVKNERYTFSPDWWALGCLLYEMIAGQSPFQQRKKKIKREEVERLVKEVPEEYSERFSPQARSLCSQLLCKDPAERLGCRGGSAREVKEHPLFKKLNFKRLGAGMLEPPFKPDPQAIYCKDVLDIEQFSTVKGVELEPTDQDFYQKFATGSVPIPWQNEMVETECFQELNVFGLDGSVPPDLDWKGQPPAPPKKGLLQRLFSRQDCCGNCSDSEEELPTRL
Observed: enzyme activity
Action: inhibitor
Tested at: 0.5 µM
Baseline: control
SMILES	remaining activity
O=C(O)/C=C/c1cc(Br)c(Br)c(Br)c1Br	97.2%
C[C@@H](N)[C@H]1CC[C@H](C(=O)Nc2ccncc2)CC1	91.4%
N#CC(c1ccnc(NCCc2cccnc2)n1)c1nc2ccccc2s1 (centres unmarked)	87.6%
c1cc(-c2cnn3cc(-c4ccc(OCCN5CCCCC5)cc4)cnc23)ccn1	90.2%
O=c1c(-c2ccc(F)cc2)c(-c2ccncc2)[nH]n1-c1ccc(Cl)cc1	90.1%
CC(C)N(CCC(=O)c1ccc2ccccc2c1)Cc1ccccc1	87.1%
N#C/C(=C(/N)SC1C=CC=CC1)c1cccc(C(O)c2ccncc2)c1 (centres unmarked)	84.3%
CCN(CC)CCCCN1c2ccccc2Oc2ccc(Cl)cc21	88.4%
O=C(c1ccccc1)c1ccc(N2CCOCC2)cc1O	99.5%
FC(F)(F)c1ccc(/C=C/c2nc(COc3ccc(CCCCn4ccnn4)cc3)co2)cc1	104%
Clc1ccc(Nc2nnc(Cc3ccncc3)c3ccccc23)cc1	99.9%
NC(=O)c1ccc(-c2nc(-c3ccc4c(c3)OCCO4)c(-c3ccccn3)[nH]2)cc1	102%

Sample 3
SMILES: CN1CCN(C(=O)c2ccc(NC(=O)Nc3ccc(N(C)c4ccnc(Nc5ccc(CS(C)(=O)=O)cc5)n4)cc3)cc2)CC1
Tested at: 1 µM
target	method	item	setting	baseline	remaining binding
Tyrosine-protein kinase receptor UFO (AXL, Homo sapiens, UniProt P30530)	competitive binding panel	–	–	vehicle	9.7%
Mitogen-activated protein kinase 15 (MAPK15, Homo sapiens, UniProt Q8TD08)	competitive binding panel	ERK8	–	vehicle	25%
Dual specificity mitogen-activated protein kinase kinase 7 (MAP2K7, Homo sapiens, UniProt O14733)	competitive binding panel	MKK7	–	vehicle	95%
Cyclin-dependent kinase 14 (CDK14, Homo sapiens, UniProt O94921)	competitive binding panel	PFTK1	–	vehicle	81%
Cyclin-dependent kinase 18 (CDK18, Homo sapiens, UniProt Q07002)	competitive binding panel	PCTK3	–	vehicle	96%
Serine/threonine-protein kinase N1 (PKN1, Homo sapiens, UniProt Q16512)	competitive binding panel	–	–	vehicle	70%
Dual specificity mitogen-activated protein kinase kinase 2 (MAP2K2, Homo sapiens, UniProt P36507)	competitive binding panel	MEK2	–	vehicle	40%
Dual specificity protein kinase TTK (TTK, Homo sapiens, UniProt P33981)	competitive binding panel	–	–	vehicle	61%
Tyrosine-protein kinase SYK (SYK, Homo sapiens, UniProt P43405)	competitive binding panel	–	–	vehicle	34%
Phosphatidylinositol 4,5-bisphosphate 3-kinase catalytic subunit alpha isoform (PIK3CA, Homo sapiens, UniProt P42336, Q546K)	competitive binding panel	–	–	vehicle	100%
Protein kinase C delta type (PRKCD, Homo sapiens, UniProt Q05655)	competitive binding panel	–	–	vehicle	100%
Serine/threonine-protein kinase TAO3 (TAOK3, Homo sapiens, UniProt Q9H2K8)	competitive binding panel	–	–	vehicle	83%
Calcium/calmodulin-dependent protein kinase kinase 1 (CAMKK1, Homo sapiens, UniProt Q8N5S9)	competitive binding panel	–	–	vehicle	28%
Megakaryocyte-associated tyrosine-protein kinase (MATK, Homo sapiens, UniProt P42679)	competitive binding	–	CTK	–	100%
Serine/threonine-protein kinase D3 (PRKD3, Homo sapiens, UniProt O94806)	competitive binding panel	–	–	vehicle	100%

Sample 4
Structure (SMILES): O=C(Nc1cccnn1)N1CC(C/C=C/c2cncc(Oc3ccc(C(F)(F)F)cn3)n2)C1
Tested at: 1 µM
target	observed	method	remaining binding
Mast/stem cell growth factor receptor Kit (KIT, Homo sapiens, UniProt P10721, V559D)	cell-free assay	competition with immobilised ligand	64%
Calcium/calmodulin-dependent protein kinase type 1D (CAMK1D, Homo sapiens, UniProt Q8IU85)	cell-free assay	competition with immobilised ligand	100%
Mitogen-activated protein kinase kinase kinase 20 (MAP3K20, Homo sapiens, UniProt Q9NYL2)	cell-free assay	competition with immobilised ligand	100%
Transient receptor potential cation channel subfamily M member 6 (TRPM6, Homo sapiens, UniProt Q9BX84)	cell-free assay	competition with immobilised ligand	73%
Serine/threonine-protein kinase ULK2 (ULK2, Homo sapiens, UniProt Q8IYT8)	cell-free assay	competition with immobilised ligand	73%
Serine/threonine-protein kinase MRCK gamma (CDC42BPG, Homo sapiens, UniProt Q6DT37)	–	competition binding	100%
Calcium/calmodulin-dependent protein kinase type II subunit gamma (CAMK2G, Homo sapiens, UniProt Q13555)	cell-free assay	competition with immobilised ligand	100%
NUAK family SNF1-like kinase 1 (NUAK1, Homo sapiens, UniProt O60285)	cell-free assay	competition with immobilised ligand	100%
eIF-2-alpha kinase GCN2, C-terminal kinase domain (EIF2AK4, Homo sapiens, UniProt Q9P2K8, S808G)	cell-free assay	competition with immobilised ligand	97%
Fibroblast growth factor receptor 3 (FGFR3, Homo sapiens, UniProt P22607)	cell-free assay	competition with immobilised ligand	97%
Mitogen-activated protein kinase kinase kinase 12 (MAP3K12, Homo sapiens, UniProt Q12852)	cell-free assay	competition with immobilised ligand	83%
Mitogen-activated protein kinase 8 (MAPK8, Homo sapiens, UniProt P45983)	cell-free assay	competition with immobilised ligand	75%
Serine/threonine-protein kinase 17A (STK17A, Homo sapiens, UniProt Q9UEE5)	cell-free assay	competition with immobilised ligand	100%

Some of these lines once more (sample 3):
target	method	item	setting	baseline	remaining binding
Serine/threonine-protein kinase N1 (PKN1, Homo sapiens, UniProt Q16512)	competitive binding panel	–	–	vehicle	70%
Dual specificity mitogen-activated protein kinase kinase 7 (MAP2K7, Homo sapiens, UniProt O14733)	competitive binding panel	MKK7	–	vehicle	95%
Calcium/calmodulin-dependent protein kinase kinase 1 (CAMKK1, Homo sapiens, UniProt Q8N5S9)	competitive binding panel	–	–	vehicle	28%
Tyrosine-protein kinase SYK (SYK, Homo sapiens, UniProt P43405)	competitive binding panel	–	–	vehicle	34%
